Assay results of several laboratories.
Parts stem from different laboratories: compare values within a part only.

Study 1
Target: Histone acetyltransferase KAT6A, winged helix 2, GST fusion (KAT6A, Homo sapiens, UniProt Q92794, residues 85-181)
Technique: protein binding microarray
Form: double-stranded DNA, one strand shown
Matrix: in vitro
Concentration: not given
Notes: 8-mer, flanks averaged, mean of 2 arrays, mostly near background
Reference: not given
Reading: higher = stronger binding
Target sequence (chain): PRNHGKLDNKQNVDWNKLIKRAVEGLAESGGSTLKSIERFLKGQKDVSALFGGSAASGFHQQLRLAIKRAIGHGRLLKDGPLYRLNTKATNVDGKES
`CCGGTTGC` gave an E-score of 0.19.
For `ACGGCCGC`, the E-score was 0.194.
With `CGGAGTGC` the E-score was 0.199.
The E-score of `CACGCGTA` is reported as -0.193.

Study 2
Target: Interferon regulatory factor 7, full length, phosphomimetic (IRF7, Homo sapiens, UniProt Q92985, residues 1-503, S101K/S471D/S472D/S475D/S476D/S477D/S483D/S484D/S487D)
Technique: protein-binding microarray
Form: double-stranded DNA, one strand shown
Matrix: in vitro
Concentration: 250 nM
Notes: 60-bp whole probe
With: salmon DNA 0.4 mg/ml
Reference: random background probes
Reading: higher = stronger binding
Construct (chain): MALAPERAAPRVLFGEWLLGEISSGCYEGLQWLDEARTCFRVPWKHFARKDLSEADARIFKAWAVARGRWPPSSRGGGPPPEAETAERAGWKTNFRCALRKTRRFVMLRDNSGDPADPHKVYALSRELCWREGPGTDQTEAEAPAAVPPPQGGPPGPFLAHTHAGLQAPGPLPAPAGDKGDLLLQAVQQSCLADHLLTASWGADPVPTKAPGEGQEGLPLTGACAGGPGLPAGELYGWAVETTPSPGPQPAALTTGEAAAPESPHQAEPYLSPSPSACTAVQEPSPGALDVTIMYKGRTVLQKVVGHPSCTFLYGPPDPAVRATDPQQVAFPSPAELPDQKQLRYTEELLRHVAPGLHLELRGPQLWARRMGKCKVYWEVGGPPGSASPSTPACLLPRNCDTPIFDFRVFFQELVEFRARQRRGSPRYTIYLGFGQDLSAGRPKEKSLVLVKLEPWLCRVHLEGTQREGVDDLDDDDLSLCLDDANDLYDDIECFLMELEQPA
For `GCCTAGCACTTAGGTCTCGGTTGCGGTTAGTGCTAGGTCTTGATTCGCTTGACGCTGCTG`, the log fluorescence was 2.42 z-score.
For `GCCTAGCACTTAGGACTGGACACTGGATTAGTGCTAGTCTTGATTCGCTTGACGCTGCTG`, the log fluorescence was -0.305 z-score.
`GCCTAGCACTGAGGTTTCGGGACTGGGTTAGTGCTAGTCTTGATTCGCTTGACGCTGCTG` gave a log fluorescence of 3.12 z-score.
With `GCCTAGCACTTGTGTCTGGGCATTTTTTTAGTGCTAGTCTTGATTCGCTTGACGCTGCTG` the log fluorescence was -1.01 z-score.

Study 3
Target: Ras GTPase-activating protein-binding protein 1, C-terminal RGG region (G3BP1, Homo sapiens, UniProt Q13283)
Chain of UniProt Q13283 (whole entry, looked up): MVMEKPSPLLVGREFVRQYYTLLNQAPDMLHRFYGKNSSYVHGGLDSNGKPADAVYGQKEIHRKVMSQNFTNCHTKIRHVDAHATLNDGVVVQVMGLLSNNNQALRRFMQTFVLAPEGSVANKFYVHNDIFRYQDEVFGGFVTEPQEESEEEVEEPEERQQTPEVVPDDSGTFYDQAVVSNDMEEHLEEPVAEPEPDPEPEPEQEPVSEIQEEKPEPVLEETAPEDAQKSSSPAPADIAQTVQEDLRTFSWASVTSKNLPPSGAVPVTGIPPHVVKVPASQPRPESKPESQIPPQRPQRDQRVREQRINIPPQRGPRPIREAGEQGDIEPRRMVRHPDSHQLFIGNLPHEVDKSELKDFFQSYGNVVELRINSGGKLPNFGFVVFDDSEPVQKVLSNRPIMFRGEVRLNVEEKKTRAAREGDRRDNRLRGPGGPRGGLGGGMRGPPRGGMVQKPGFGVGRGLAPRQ
Technique: RNA Bind-n-Seq
Form: RNA
Matrix: in vitro
Concentration: 1 µM
Notes: whole 134-nt RNA, ends assumed
With: 150 mM KCl
Reference: input library
Reading: higher = stronger binding
With `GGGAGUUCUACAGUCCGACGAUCCAAGUCCUGUGCUACACAUCGUAUGUACCGAAUCGGUUUUGGGUUUUGGGUUUUGGAAAGUAUUAUGUUACGCCGUUCGGAUCUGCACUUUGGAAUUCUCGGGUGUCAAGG` the log2 enrichment was -1.76.
`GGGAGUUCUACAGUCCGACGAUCAAGUCCUGUGCUACACAUCGUAUGUACCGAAUCGGGAAAAGGGGAAAAGGAAAAGGGAAAGUAUUAUGUUACGCCGUUCGGAUCUGCACUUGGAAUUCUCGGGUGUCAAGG` has a log2 enrichment of -1.4.
`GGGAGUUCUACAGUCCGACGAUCUCCUGUGCUACACAUCGUAUGUACCGAAUCGGCCCCCCGGGCCCCCCGGGCCCCCCGGGGAAAGUAUUAUGUUACGCCGUUCGGAUCUGCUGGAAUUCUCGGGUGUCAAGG` has a log2 enrichment of -1.49.
For `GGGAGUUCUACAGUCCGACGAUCGCAGGAAGUAAAAACAAUUGGAAAUGCUUCGGAUAGUGGCAGGGGUGGGGGUUGCUAAGGAAAGGGUGGGAUGGGAGUGGGUAAAGAGUUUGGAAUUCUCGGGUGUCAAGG`, the log2 enrichment was 1.67.
The log2 enrichment of `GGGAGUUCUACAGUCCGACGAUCAAGUCCUGUGCUACACAUCGUAUGUACCGAAUCGGAAAAAGGAAAAAGGUUUUUGGAAAGUAUUAUGUUACGCCGUUCGGAUCUGCACUUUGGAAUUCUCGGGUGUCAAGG` is reported as -2.08.

Further values, each from its own experiment
With `PhoQ, residues 284 288 289 292 302 303 MLMVEA` the fold induction was 27.6 (PhoP, residues 12 14 15 18 19 QQAYL (Escherichia coli, UniProt P23836); Sort-seq, refers to: YFP reporter; E. coli; PhoQ-PhoP variant library, with: 10 µM Mg2+; reference: high Mg2+ state, higher = stronger signaling).

Repeated from above (study 1):
For `ACGGCCGC`, the E-score was 0.194.
